Assay results gathered from unrelated publications.
Lines come from different studies, so protocols differ. ± marks the error that the study gave.

The CC50 of CN(Cc1ccccc1)CC12C3CCC4C3C3C(CCC31)C42 is reported as 0.04 µM (dog cells; cytotoxicity; 3 (unit not given)).
CC(C)C[C@@H]1NC(=O)[C@H](CCCCN)NC(=O)[C@H](CC(C)C)NC(=O)[C@@](C)(NC(=O)[C@H](Cc2ccccc2)NC(=O)[C@H](Cc2ccc(O)cc2)NC(=O)[C@H](C)NC(=O)[C@@H](NC(=O)c2ccc3c(c2)C(=O)OC32c3ccc(O)cc3Oc3cc(O)ccc32)[C@@H](C)O)CCCC=CCCC[C@@](C)(C(=O)NCC(=O)N[C@@H](CCCNC(=N)N)C(=O)N[C@@H](Cc2c[nH]c3ccccc23)C(N)=O)NC1=O gave a CC50 of greater than 125 µM (MT-4).
For C=C(C)[C@@H]1CC[C@]2(C(=O)N3CCN(C)CC3)CC[C@]3(C)[C@H](CC[C@@H]4[C@@]5(C)CCCNC(C)(C)[C@@H]5CC[C@]43C)[C@@H]12, the CC50 was 86.5 µM (HFF; cell growth or viability, ATP luminescence).
O=C1C=CC(=O)C=C1 has a CC50 of 36.2 ± 0.7 µM (Huh-7, mock-infected; MTS; 4 (unit not given)).
With c1ccc(CNCC23C4CCC5C4C4C(CCC42)C53)cc1 the CC50 was 12 µM (dog cells; cytotoxicity; 3 (unit not given)).
With CC(C)=CCNCCOC1C2CC3CC(C2)CC1C3 (centres unmarked) the CC50 was 9.2 µg/mL (HEK-293T; cell growth or viability).
O=C(NCc1cccc(Cl)c1F)c1cn(Cc2ccc(F)cc2)cc(O)c1=O has a CC50 of greater than 50 µM (HFF; cell growth or viability, MTS; 7 days).
C=CC1=C(C)c2cc3nc(cc4[nH]c(cc5[nH]c(cc1n2)c(C)c5C=C)c(C)c4CCC(=O)OCCCCCCCCCC)C(CCC(=O)O)=C3C has a CC50 of 121 ± 2.18 µM (dog cells).
For O=C(NCc1cc(Cl)ccc1F)c1cn(Cc2ccc(F)cc2)cc(O)c1=O, the CC50 was 5.3 µM (HFF; cell growth or viability, MTS; 7 days).
CC(CCC(=O)[O-])C1CCC2C3CCC4CC(O)CCC4(C)C3CCC12C.C[N+](C)(C)CC(O)CC(=O)O (centres unmarked) gave a CC50 of greater than 50 µg/mL (A549-hACE2).
The CC50 of COc1ccc(C(=O)OC2C(OC3C(O)COC(OC4CC5C6CC=C7CC(O)CCC7(C)C6CCC5(C)C4(O)C(C)C(=O)CCC(C)C)C3OC(C)=O)OCC(O)C2O)cc1 (centres unmarked) is reported as greater than 0.1 µM (MRC5; cell growth or viability, MTT; 24 h).
CC(=N)NC12C3CCC4C3C3C(CCC31)C42 has a CC50 of 14 µM (dog cells; cytotoxicity; 3 (unit not given)).
For Oc1ccc([C@@H]2Oc3ccc(/C=C/c4cc(O)cc(O)c4)cc3[C@H]2c2cc(O)cc(O)c2)cc1, the CC50 was 184 µM (dog cells; 24 (unit not given)).
O=C(NCc1cccc2[nH]cc(C(=O)C(F)(F)F)c12)c1cn(Cc2ccc(F)cc2)cc(O)c1=O has a CC50 of 12 µM (HFF; cell growth or viability, MTS; 7 days).
With CC(C)C[C@H](NC(=O)[C@H](C)NC(=O)CNC(=O)[C@@H](NC(=O)[C@@H](NC(=O)[C@H](CCCCN)NC(=O)[C@H](CCCCN)NC(=O)[C@H](CC(C)C)NC(=O)[C@H](CC(C)C)NC(=O)[C@H](CCCCN)NC(=O)[C@H](CC(C)C)NC(=O)[C@H](CC(C)C)NC(=O)[C@@H](N)CCCCN)C(C)C)C(C)C)C(=O)NCC(N)=O the CC50 was 67 µM (HDMEC; cytotoxicity).
With CC(C)C[C@H](NC(=O)[C@H](CCCCN)NC(=O)[C@H](CC(C)C)NC(=O)[C@H](CCCCN)NC(=O)[C@H](CC(C)C)NC(=O)[C@H](CCCCN)NC(=O)[C@H](C)NC(=O)[C@@H](NC(=O)[C@H](CC(C)C)NC(=O)[C@H](CCCCN)NC(=O)[C@H](CC(C)C)NC(=O)[C@H](CCCCN)NC(=O)[C@H](CC(C)C)NC(=O)[C@H](CCCCN)NC(=O)[C@@H](N)CC(C)C)[C@@H](C)O)C(N)=O the CC50 was 32.1 µM (HaCaT; cell viability; 24 h, serum-free medium).
With CC(C)=CCC/C(C)=C/CNCCOC1C2CC3CC(C2)CC1C3 (centres unmarked) the CC50 was 1.3 µg/mL (HEK-293T; cell growth or viability).
With CC1(C)OB(c2ccc(CNC(=O)c3cn(Cc4ccc(F)cc4)cc(O)c3=O)cc2)OC1(C)C the CC50 was greater than 50 µM (HFF; cell growth or viability, MTS; 7 days).
CC[C@H](C)[C@H](NC(=O)[C@H](CC(=O)O)NC(=O)[C@H](Cc1ccccc1)NC(=O)[C@H](CC(C)C)NC(=O)CN)C(=O)N[C@H](C(=O)N[C@@H](CCCCN)C(=O)N[C@@H](CCCCN)C(=O)N[C@H](C(=O)N[C@@H](CC(C)C)C(=O)N[C@@H](CCCCN)C(=O)N[C@@H](CC(C)C)C(=O)N[C@@H](CC(C)C)C(=O)N[C@@H](CCCCN)C(N)=O)C(C)C)C(C)C gave a CC50 of 85 µM (HDMEC; cytotoxicity).
The CC50 of N=C(N)N1CC23C4CCC5C4C4C2CCC4C53C1 is reported as greater than 100 µM (dog cells; cytotoxicity; 3 (unit not given)).
O=C(NCc1c(F)cccc1F)c1cn(Cc2ccc(F)cc2)cc(O)c1=O has a CC50 of 7.5 µM (HFF; cell growth or viability, MTS; 7 days).
COc1ccccc1/C=C/[N+](=O)[O-] has a CC50 of 16.9 µM (H9c2; cell growth or viability; 72 h).
The CC50 of C=CCCC[C@](C)(N)C(=O)N[C@@H](C)C(=O)N[C@@H](Cc1ccc(O)cc1)C(=O)N[C@@H](Cc1ccccc1)C(=O)N[C@@](C)(CCCC=C)C(=O)N[C@@H](CC(C)C)C(=O)N[C@@H](CCCCN)C(=O)N[C@@H](CC(C)C)C(=O)N[C@@H](C)C(=O)NCC(=O)N[C@@H](CCCNC(=N)N)C(=O)N[C@@H](Cc1c[nH]c2ccccc12)C(N)=O is reported as 5 µM (MT-4).
C1=[N+]2CCCC[N+]3=Cc4ccc5[n]4[Au-]23[n]2c1ccc2-c1nc2ccccc2nc1-5.F[P-](F)(F)(F)(F)F has a CC50 of greater than 100 µM (melanoma cancer cell lines; NCI60 panel mean).
With C=CC1=C(C)c2cc3nc(cc4[nH]c(cc5[nH]c(cc1n2)c(C)c5C=C)c(C)c4CCC(=O)OCCCCCCCCCCCCCCCCCC)C(CCC(=O)O)=C3C the CC50 was 140 ± 1.58 µM (dog cells).
CC(=N)NCC12C3CCC4C3C3C(CCC31)C42 gave a CC50 of greater than 100 µM (dog cells; cytotoxicity; 3 (unit not given)).
With CC(C)C[C@@H]1NC(=O)[C@H](CCCCN)NC(=O)[C@H](CC(C)C)NC(=O)[C@@](C)(NC(=O)[C@H](Cc2ccccc2)NC(=O)[C@H](Cc2ccc(O)cc2)NC(=O)[C@H](C)NC(=O)[C@@H](N)[C@@H](C)O)CCC=CCC[C@@](C)(C(=O)NCC(=O)N[C@@H](CCCNC(=N)N)C(=O)N[C@@H](Cc2c[nH]c3ccccc23)C(N)=O)NC1=O the CC50 was 40 µM (MT-4).
For CC(C)C[C@@H]1NC(=O)[C@H](Cc2ccc(O)cc2)NC(=O)[C@H](C(C)C)NC(=O)[C@@H]2CSSC[C@@H]3NC(=O)[C@H](CO)NC(=O)[C@@H]4CSSC[C@H](NC(=O)[C@@H]5CCCN5C(=O)[C@H](Cc5ccccc5)NC(=O)CNC(=O)[C@H](CC(N)=O)NC(=O)[C@H](CCCCN)NC(=O)[C@H](Cc5ccc(O)cc5)NC(=O)[C@H](CSSC[C@H](NC(=O)[C@@H]5CCCN5C1=O)C(=O)N[C@@H](Cc1ccccc1)C(=O)N[C@@H]([C@@H](C)O)C(=O)N[C@@H](C)C(=O)N[C@@H](C)C(=O)N[C@@H](C)C(=O)NCC(=O)N4)NC(=O)[C@H](C(C)C)NC(=O)[C@H](CCCCN)NC(=O)[C@H](CO)NC(=O)[C@H](CCCCN)NC3=O)C(=O)NCC(=O)N[C@@H](CCC(=O)O)C(=O)N[C@@H](CO)C(=O)N2, the CC50 was 3.99 ± 0.21 µM (HeLa; resazurin; 24 h).
With C=C(C)[C@@H]1CC[C@]2(C(=O)NC(CO)Cc3ccccc3)CC[C@]3(C)[C@H](CC[C@@H]4[C@@]5(C)CCCNC(C)(C)[C@@H]5CC[C@]43C)[C@@H]12 (some centres unmarked) the CC50 was 3.24 µM (HFF; cell growth or viability, ATP luminescence).
For Cc1ccc(CNC(=O)c2cn(Cc3ccc(F)cc3)cc(O)c2=O)c(F)c1, the CC50 was greater than 50 µM (HFF; cell growth or viability, MTS; 7 days).
For CCC1(CC)C2CC3CC(C2)CC1(N)C3, the CC50 was greater than 100 µM (dog cells; cytotoxicity; 3 (unit not given)).
CC[C@H](C)[C@@H]1NC(=O)[C@H](C)NC(=O)[C@H](C)NC(=O)[C@H]([C@@H](C)O)NC(=O)[C@H](Cc2ccccc2)NC(=O)[C@@H]2CSSC[C@@H]3NC(=O)[C@H](C(C)C)NC(=O)[C@H](CCCCN)NC(=O)[C@H](CO)NC(=O)[C@H](CCCCN)NC(=O)[C@@H]4CSSC[C@H](NC(=O)[C@H](CO)NC(=O)[C@H](CCC(=O)O)NC(=O)CNC(=O)[C@H](CSSC[C@H](NC(=O)CNC1=O)C(=O)N[C@@H](C)C(=O)N4)NC(=O)[C@@H]1CCCN1C(=O)[C@H](Cc1ccccc1)NC(=O)CNC(=O)[C@H](CC(N)=O)NC(=O)[C@H](CCCCN)NC(=O)[C@H](Cc1ccc(O)cc1)NC3=O)C(=O)N[C@@H](C(C)C)C(=O)N[C@@H](Cc1ccc(O)cc1)C(=O)N[C@@H](CC(C)C)C(=O)N1CCC[C@H]1C(=O)N2 has a CC50 of 1.26 ± 0.08 µM (HeLa; resazurin; 24 h).
The CC50 of CCC1(CC)C2CC3CC(C2)CC1(N(C)C)C3 is reported as greater than 100 µM (dog cells; cytotoxicity; 3 (unit not given)).
The CC50 of O=C(O[C@@H]1Cc2c(O)cc(O)cc2O[C@H]1c1cc(O)c(O)c(O)c1)c1cc(O)c(O)c(O)c1 is reported as 12 ± 12 µM (Huh-7, mock-infected; MTS; 4 (unit not given)).
With C=C1CCC2C(C)(CO)C(O)CCC2(C)C1CC(SC(=S)N1CCN(Cc2cc(F)c(F)cc2F)CC1)C1=CCOC1=O (centres unmarked) the CC50 was 13.2 ± 2.25 µM (HaCaT; MTT; 24 h).
With NC12C3CCC4C3C3C(CCC31)C42 the CC50 was greater than 100 µM (dog cells; cytotoxicity; 3 (unit not given)).
CC(C)=CCc1c(O)ccc(C(=O)C2C(c3c(O)cc(O)c4c(=O)c(CC=C(C)C)c(-c5ccc(O)cc5O)oc34)C=C(C)CC2c2ccc(O)cc2O)c1O (centres unmarked) has a CC50 of 18.1 ± 3.8 µM (Huh-7, mock-infected; MTS; 4 (unit not given)).
COc1cc(/C=C/c2ccc3c(c2)[C@@H](c2cc(OC)cc(OC)c2)[C@H](c2ccc(O)cc2)O3)cc(OC)c1 gave a CC50 of 305 µM (dog cells; 24 (unit not given)).
O=C(NCc1cccc(F)c1F)c1cn(Cc2ccc(F)cc2)cc(O)c1=O has a CC50 of 13 µM (HFF; cell growth or viability, MTS; 7 days).
CN=c1nc(-c2ccccc2)n(-c2ccccc2)s1 has a CC50 of 14 ± 1.3 µM (Huh-7, mock-infected; MTS; 4 (unit not given)).
With O[Si](CCCN1CCCCC1)(c1ccc(F)cc1)C1CCCCC1 (centres unmarked) the CC50 was 9.77 µM (BaF3; cell growth or viability, ATP luminescence; 72 h).
